Assay results gathered from unrelated publications.
Each line is one published result; not all experiments were run side by side.
Target: Cyclin-dependent kinase-like 3 (CDKL3, Homo sapiens, UniProt Q8IVW4)

Cc1cnc2nc1Nc1cccc(c1)COC/C=C/COCc1cc(ccc1OCCN1CCOCC1)N2
remaining binding (binding; 0.1 µM): 100%

CCN1CCN(Cc2ccc(C(=O)Nc3ccc(C)c(NCc4cnc5[nH]ccc5c4OC)c3)cc2C(F)(F)F)CC1
remaining binding (binding, competition with immobilised ligand; 1 µM): 71%

Nc1ncc2c(n1)-c1c([nH]c3ccc(C4=CCOCC4)cc13)CCC2
remaining binding (binding, competition with immobilised ligand; 1 µM): 100%

O=C(Cc1ccc(OCc2ccccc2)cc1)NC1(C(=O)O)CCN(C(=O)c2ccc(-c3cccc(Cl)c3)cc2)CC1
activity vs control (enzyme activity, inhibitor; 10 µM): 98%

COc1c(Cl)cccc1Nc1c(-c2ccncc2C#C[C@@]2(C)CCCN2C(=O)/C=C/CN(C)C)[nH]c2c1C(=O)NCC2
remaining binding (binding, competition with immobilised ligand; 3 µM): 100%

CNC1C[S+]2CC[S+]3CC[S+](C1)[Ru-4]321([N]=C=S)[n]2c3ccc(OC)cc3c3c4c(c5cc(F)c[n+]1c5c32)C(=O)NC4=O (stereo not drawn)
remaining binding (KinomeScan; 0.1 µM; relative to: untreated): 82%

COc1cc(Nc2nc(C)cc(-c3cnn4nc(OC)ccc34)n2)cc(C(F)(F)F)c1
remaining activity (inhibitor; 1 µM; relative to: control): 94%

C=CC(=O)N1CCCC(n2c(=O)c3ncccc3n(Cc3ccc(Oc4ccccc4)cc3)c2=O)C1 (stereo not drawn)
remaining binding (cell-free assay, competition with immobilised ligand; 1 µM): 68%

CNC(=O)C[C@H](Cc1ccc(C#N)cc1)NC(=O)c1cc(-c2ccc(CN[C@H](C)c3ccc(C)cc3)o2)ccc1Cl
activity vs control (enzyme activity, inhibitor; 1 µM): 104%

CNC(=O)C1CCN(c2cc(C)c(F)cc2NC(=O)c2ccc(-c3cc(O)ccc3C)c(C)c2)CC1
remaining binding (binding, competition with immobilised ligand; 1 µM): 96%

CN1CC[C@@H](COc2cnc(C#N)cc2-c2ccn3nc(NC(=O)C4CC4)cc3c2)C1
inhibition (enzyme activity, inhibitor; 1 µM): 10%

CC(C)=CC1OC(C)(C)C2C=C3C(=O)C(Cl)=CC(O)C3C3C(O)C4OC4C(=O)C132 (stereo not drawn)
remaining binding (cell-free assay, competition with immobilised ligand; 10 µM): 93%

COc1cc(Nc2nccc(-c3cnn4nc(OC)ccc34)n2)cc(C(F)(F)F)c1
remaining binding (binding, competition with immobilised ligand; 1 µM): 78%

C=CC(=O)N1CCc2ccc(-n3c(=O)ccc4cnc5ccc(-c6cnn(C)c6)cc5c43)cc21
remaining binding (KINOMEscan; 1 µM; relative to: DMSO control): 89%

Cc1ccc(-c2c(/C=C(\C#N)C(=O)NC(C)C)n(CCCO)c3ncnc(N)c23)cc1
remaining binding (cell-free assay, competition with immobilised ligand; 1 µM): 100%

A few entries again:
CNC(=O)C1CCN(c2cc(C)c(F)cc2NC(=O)c2ccc(-c3cc(O)ccc3C)c(C)c2)CC1
remaining binding (binding, competition with immobilised ligand; 1 µM): 96%
